Measurements of several laboratories.
Each numbered part is a random draw from the data of one study; scales do not carry over between parts.

Set 1
Target: Ras GTPase-activating protein-binding protein 1, full length (G3BP1, Homo sapiens, UniProt Q13283)
Chain of UniProt Q13283 (whole entry, looked up): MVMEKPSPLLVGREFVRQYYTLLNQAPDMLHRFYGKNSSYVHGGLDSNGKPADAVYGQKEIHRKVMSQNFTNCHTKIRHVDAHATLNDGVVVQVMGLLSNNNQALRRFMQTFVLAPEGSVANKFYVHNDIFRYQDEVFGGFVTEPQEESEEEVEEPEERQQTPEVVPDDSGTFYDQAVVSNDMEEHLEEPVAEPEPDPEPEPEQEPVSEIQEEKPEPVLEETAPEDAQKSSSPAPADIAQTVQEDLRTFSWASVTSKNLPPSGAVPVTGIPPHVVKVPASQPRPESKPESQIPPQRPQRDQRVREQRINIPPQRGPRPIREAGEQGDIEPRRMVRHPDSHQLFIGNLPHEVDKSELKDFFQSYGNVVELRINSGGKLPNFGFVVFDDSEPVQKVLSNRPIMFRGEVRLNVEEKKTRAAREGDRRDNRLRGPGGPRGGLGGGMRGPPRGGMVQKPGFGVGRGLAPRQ
Technique: RNA Bind-n-Seq
Form: RNA
Medium: in vitro
Tested at: 200 nM
Notes: whole 134-nt RNA, ends assumed
With: 150 mM LiCl
Reference: input library
Direction: higher = stronger binding
Library: 7-deaza-guanosine replaces G
All sequences stand within: GGGAGUUCUACAGUCCGACGAUC … UGGAAUUCUCGGGUGUCAAGG
Strand | log2 enrichment
GCAGGAAGUAAAAACAAAUGGAAAUCCUUCGGAUAGUGGCAGGGGUGGGGGUUGCUAAGGAAAGGGUGGGAUGGGAGUGGGUAAAGAGUU | 0.125
CCUGUGCUACACAUCGUAUGUACCGAAUCGGGGUGGGGAAAAAAAGGGGAAAAAAAGGGGAAAGUAUUAUGUUACGCCGUUCGGAUCUGC | 0.0781
UAACUUUAGAGGAGGAUCUCAUGGAUAUGGCAGUGGACGUGGAUUUGGGGAUGGCUAUAAUGGGUAUGGAGGAGGACCUGGAGGUGGCAA | -0.385
UUUCUGCAGCAUUAGAGAAGGCCCAAGAAGAAGCCCGUCAGCAGCAAGAAACAUUAGCCAUUCAAGUAAGCAAUGGAUGAUGAAUUAGAG | -2.99
AGUCCUGUGCUACACAUCGUAUGUACCGAAUCGGGAAAAAGGGAAAAAGGGAAAAAGGAAAGUAUUAUGUUACGCCGUUCGGAUCUGCAC | -0.349
CCUGUGCUACACAUCGUAUGUACCGAAUCGGGGAAAAAAGGGAAAAAAGGGAAAAAAGGGGAAAGUAUUAUGUUACGCCGUUCGGAUCUG | 0.63

Set 2
Target: RING finger protein unkempt homolog, zinc fingers 1-6, GST-SBP tag (UNK, Homo sapiens, UniProt Q9C0B0, residues 30-357)
Chain of UniProt Q9C0B0 (30-357, looked up): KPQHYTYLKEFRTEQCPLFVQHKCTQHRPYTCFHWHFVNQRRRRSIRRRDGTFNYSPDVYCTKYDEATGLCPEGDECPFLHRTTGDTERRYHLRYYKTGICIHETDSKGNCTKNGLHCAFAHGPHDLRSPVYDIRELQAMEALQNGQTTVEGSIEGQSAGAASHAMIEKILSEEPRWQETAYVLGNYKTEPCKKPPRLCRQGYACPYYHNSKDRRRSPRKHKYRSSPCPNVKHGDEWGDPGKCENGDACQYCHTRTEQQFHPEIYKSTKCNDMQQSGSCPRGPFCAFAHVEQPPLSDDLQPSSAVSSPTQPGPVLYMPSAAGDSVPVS
Technique: RNA Bind-n-Seq
Form: RNA
Medium: in vitro
Tested at: not given
Notes: RNA with constant flanks, human-mouse chimeric sites, ends assumed
Reference: input RNA pool
Direction: higher = stronger binding
All sequences stand within: GGGAGUUCUACAGUCCGACGAUC … CAACAGAGGAUUGAGCAUCA
Strand | bound/input enrichment [ratio]
UACAUUUUACACUGUUGUUUCAUUUUCAUAUAUUCUUGUAGUGUCUGCUUGCCUGUGACUUCUGGUAAAAUAAAAUAAGCCUUUGAAAAUAUUUUAGCAUGGUAUUUAACAUUUUCUAAA | 3.43
GGUGGGGUGGUCAUUGCCGUUUGAGCUCUGCUGAUUCUUAUGAAUCAUUCAAAACUCUCGUGUAGGGUUGACAAUGUGGGGGGGUGGGGGAUCCAGCUUAUUCUUUUAUUUUCAAGUCCA | 0.678
CACACACUCUUCUGCGGCACCCUCAUUUUGCAGGCCCGGGCCUAUGUGGGACCGCACGUGCUAGCAGUGGUGACCCGCACAGGGUUCUGCACGGCAAAAGGGGGCCUGGUGAGCUCCAUC | 0.129
ACCAUUUUCGCGGUUCAAGGUUUUGUGGUAGUUCACUUACGGUAUUAAAUUAUUAUUCUGCUUAGCUUAUAAUAAGGAUAAUUGCAUUUAAAGAGGUUACUGAAUGUUACUCUGAAACUU | 0.435
GCACUUCUCAAAUACUGGCCAAAGACUCACAGUCCAAAAGAAGUAAUGUUCUUAAAUGAAUUAGAAGAGAUUUUAGAUGUAAUUGAACCAUCAGAGUUUGUGAAGAUCAUGGAGCCUCUU | 0.54
GGAAGUACAAUGAUGGAGAUUGAUGGUGACAAAGGCAAGCAGGGCGGGCCCACCUACUACAUAGACACCAAUGCCCUCCGCGUGCCCAGGGAGAAUAUGGAGGCCAUCUCACCACUCAAG | 0.238
UCUUUAAAAAAAAAAUUACCUUUUCUGACAGUGCUUUCCCUCCCAUAGAUCCACGUUCAAGCUCAAAGAGCAAAGGCUUUGCACGGAUCUGAUGAUGCUGAUGAAGAUUUUUGAGACAGA | 0.513
UCUGGUCACACUCGUGUGUAUGGUGUUUGCUUUGUGGACACUUCACUGGGCAAGUUUUUCAUCGGCCAGUUUUCGGAUGACCGCCACUGUUCCAGAUUUAGGACUCUAGUGGCACACUAU | 0.171
GAAACAUUUAAAUUUAAAGAAGCUGUUGUUCUAGGAAGCACGGACUUUCUAGAAGAUGAUAUAGAAAAAAUUGUAGAAGAACUGGGGAAAGAGUAUAAGGGCAACGCCUACCAUCUGAUG | 1.56

Set 3
Target: Histone acetyltransferase KAT6A, winged helix 2, GST fusion (KAT6A, Homo sapiens, UniProt Q92794, residues 85-181)
Technique: protein binding microarray
Form: double-stranded DNA, one strand shown
Medium: in vitro
Tested at: not given
Notes: 8-mer, flanks averaged, mean of 2 arrays, mostly near background
Reference: not given
Direction: higher = stronger binding
Construct (chain): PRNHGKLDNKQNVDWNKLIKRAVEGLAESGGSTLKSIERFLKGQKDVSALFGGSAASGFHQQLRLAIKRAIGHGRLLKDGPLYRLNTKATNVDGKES
Strand | E-score
ATCCCCAG | -0.222
CTAATTGA | 0.167
AATCCCGA | 0.0593
CATTACCG | -0.031
AGGTTGCA | -0.0346
ACGAGACG | -0.116
AGTACTAT | 0.0151
CGCTCTTC | 0.0501
CTAACTAC | -0.112

Other studies, line by line
Molecule | target | test | test system | conditions | scale | endpoint | value
PhoQ, residues 284 288 289 292 302 303 QWQEDG | PhoP, residues 12 14 15 18 19 GHCSL (Escherichia coli, UniProt P23836) | Sort-seq, item: YFP reporter | E. coli | PhoQ-PhoP variant library, with: 10 µM Mg2+ | reference: high Mg2+ state, higher = stronger signaling | fold induction | 10.2

Repeated from above (set 3):
Strand | E-score
CATTACCG | -0.031
CGCTCTTC | 0.0501
